Results pooled from the literature.
Each numbered part is a random draw from the data of one study; scales do not carry over between parts. “And” joins repeats or separate records; there may be more than shown.

Series 1
Target: RNA binding protein fox-1 homolog 2, RRM domain, GST-SBP tag (RBFOX2, Homo sapiens, UniProt O43251-10, residues 100-194)
Technique: RNA Bind-n-Seq
Molecule type: RNA
Medium: in vitro
Tested at: 365 nM
Setting: natural RNA segment, single round, ends assumed
Relative to: no-protein control
Direction: higher = stronger binding
All sequences stand within: GGGAGUUCUACAGUCCGACGAUC … UGGAAUUCUCGGGUGCCAA
Residues (chain): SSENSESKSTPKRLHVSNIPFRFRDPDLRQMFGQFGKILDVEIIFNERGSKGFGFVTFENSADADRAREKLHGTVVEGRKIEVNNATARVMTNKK
Strand	RBNS enrichment (R)
AAGAAGAGGGAGAUACUAGAGGAACUGAGGCUCCACCCAUUCAUUCAGUUGCUCUAAGCACCAGAGGACUUGUUUCAGAAAAGGGGAGUGGGAACGCCCUCGACUUUGCC	1.63
UGCAUAUUGGGGUUUUUGUUUGUUUGUUUUUUAAGCACUUACCAAGUGCCCUAUCCCUGGCAGGCCCCUAGUGGGGGUGUCGUGGCUUUUUUCAGAGUCUAUAAGCAUGC	5.59
UGAGUUGCCUGUUUACUGUUGAUGCAAUUGUUUUGAUUUUUAACUAAAUGCAAAUACCUUCCUGCCUCAUCCCAGAAAAUGAAAAAUAAUGCUUUUGACACUGUUUCUAG	0.593
ACUCCCAGAUUACCCGUGGGCGUGUGUCUGUACCGAGGCAGGGAUCUUGGCUUCCUGAUGGGAUCUCUUCUAGUGCAGUCCAGAUAGGGCUUGCAAUAUGAACCUUGGAA	0.418
AAAGUGGAGUAACAUUUCUUUCAUCUUUGUUUACACUCUCACUAGGACUCUGAACCAUGAUUGGAAGCAGAAAUAUAGUACGAUAGUGCAAUAGCUCAGAACCCGCCUAA	0.346
UGAAAUAAAACAUAGUUAACUGUGUUUGAUGUGAAAUAAUAGAUUGUGGGUAGAGGUGAGGCCAAAAAAAAGGUUGUGGGGUGGGGGAAAGAAGGUUGCCGCCUCGACUG	0.91
UUUAACUAGACUAUAGGUAGUUCCUUAAGGUUGUUUGACCUGAAGUGGAGUUGGGUUUGGAAGCUGGUGCCCAGUUGGUGUGGAGUGUGUAGUUUUGUUAUGAAAGUUCU	1.14
GGUCCUCUAGAGCACGGGUUUGGAGAAAUGACUGUUUUCAUGAAAGCACCAUUAGCACCACAGAAUUCACCCACUGCCUGUUUUUCCUUUUCCUUUCUCAAACCUACUCA	2.95

Series 2
Target: Fragile X messenger ribonucleoprotein 1, C-terminal low-complexity region (Fmr1, Mus musculus, UniProt P35922)
Technique: RNA Bind-n-Seq
Molecule type: RNA
Medium: in vitro
Tested at: 200 nM
Setting: whole 134-nt RNA, ends assumed
Added: 150 mM LiCl
Relative to: input library
Direction: higher = stronger binding
Library: 7-deaza-guanosine replaces G
All sequences stand within: GGGAGUUCUACAGUCCGACGAUC … UGGAAUUCUCGGGUGUCAAGG
Strand	log2 enrichment
CCUCAAGUCCUGUGCUACACAUCGUAUGUACCGAAUCGGGCGGGCGGGGCGGGAAAGUAUUAUGUUACGCCGUUCGGAUCUGCACUUCCA	-0.528
UGCGAGGUGGAUUUUGUUUAUUUUUUUAGCUCAUUUCCAGGGGUGGGAAUUUUUUUUUAAUAUGUGUCAUGAAUAAAGUUGUUUUUGAAA	0.583
UGAACAGCUCUGCGCUUUUUGUUACUGUGGGGAAAAAAGUUCCUUAGGACAAGGAGACUUAAAACAAUUCAGAAUAACGCCUGGAUUUAU	-2.51
ACCAUGCAGGUGGGCAUCUUUGGGAAGUGGGGCAAGGGGGGGAUAGGGAGGGGGGUAACACUUUGGGAACAGGCGGUCCCAGGUCGUUUC	1.4
GCAGGAAGUAAAAACAAAUGGAAAUGCUUAAAAUAGUGGCAGGGGUGGGGGUUGCUAAGGAAAGGGUGGGAUGGGAGUGGGUAAAGAGUU	1.51
CCUCAAGUCCUGUGCUACACAUCGUAUGUACCGAAUCGGGCCGGGCCGGCCGGAAAGUAUUAUGUUACGCCGUUCGGAUCUGCACUUCCA	0.928
UGGCCCUGGUGGCAUGCGGGGAGGAAGAUGUGGCCUCAUGGAUCGUGGUGGUCCCGGUGGAAUGUUCAGAGGUGGCCGUGGUGGAGACAG	0.054
UUCAGUUUCCCAAACCUGAGAUGAUCUGUCAGCUGGAGAACUGGGACGAGCAGUGGAUCCUGGAUCUACCGAGAACUGGGAAUAGGAAGG	0.367

Series 3
Target: Histone acetyltransferase KAT6A, both winged helices, GST fusion (KAT6A, Homo sapiens, UniProt Q92794, residues 1-181)
Technique: protein binding microarray
Molecule type: double-stranded DNA, one strand shown
Medium: in vitro
Tested at: not given
Setting: 8-mer, flanks averaged, mean of 2 arrays, mostly near background
Relative to: not given
Direction: higher = stronger binding
Target sequence (chain): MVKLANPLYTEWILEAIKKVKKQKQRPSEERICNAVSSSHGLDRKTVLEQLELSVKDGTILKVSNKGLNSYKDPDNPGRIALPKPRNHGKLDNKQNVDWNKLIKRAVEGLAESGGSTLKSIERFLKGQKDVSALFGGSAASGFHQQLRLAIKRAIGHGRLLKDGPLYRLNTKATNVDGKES
Strand	E-score
ATGAAGCA	-0.267
AGTCGTTC	-0.0947
GCCGCAAC	0.274
ACCGGCAC	0.23
CGGCTCCA	0.211
AAGCTCCG	0.189
AGGAAGCC	-0.0834
ACGTCACC	-0.0726
AGCTTAAA	0.0271
AACTCAGT	-0.192
TCGTGTAA	0.00791
AAAGGTAT	0.0892
CTGGATCA	-0.184
CCCAGCGA	-0.104
ATCGAATC	0.108
ACTGTCCG	0.183
CTAAGGAC	-0.0535
TATGTAGA	-0.166
ATCAACGG	0.181

Series 4
Target: Interferon regulatory factor 5, full length, phosphomimetic (IRF5, Homo sapiens, UniProt Q13568-2, residues 1-514, S451D/S453D/S456D/S462D)
Technique: protein-binding microarray
Molecule type: double-stranded DNA, one strand shown
Medium: in vitro
Tested at: 940 nM top
Setting: 60-bp whole probe
Added: salmon DNA 0.4 mg/ml
Relative to: random background probes
Direction: higher = stronger binding
All sequences stand within: GCCTAGCAC … GTCTTGATTCGCTTGACGCTGCTG
Strand	fitted relative affinity
TTAGGTATCAGTCTCGGTTAGTGCTAG	5.24 z-score
TTAGGTTTCGACACTGGGTTGGTGCTA	8.41 z-score
GACGGTCACCTACTGCTGACGTGCTAG	-0.597 z-score
GACGGTTCCGGTTCCGGGACGTGCTAG	2.89 z-score
TTAGGTTTCGACTTTCGGTTGGTGCTA	9.34 z-score
TCAAATTTACTTTGGTTACTGTGCTAG	-0.235 z-score
TTAGATTCCACTTTCGATTAGTGCTAG	4.78 z-score
TGAGGTATCGGACTGGGTTAGTGCTAG	1.99 z-score
GACGATTACAGACTGGAGACGTGCTAG	-0.609 z-score
TTAGGTATGGGGTATCGGTTAGTGCTA	2.69 z-score
GTCGATTCCAGTTTCGAGACGTGCTAG	6.37 z-score
TGAGGTATCGGGACTGGGTTAGTGCTA	2.08 z-score
CTGACATGTAAATGTGACATGTGCTAG	-0.318 z-score
TTAGGACTGTTTTTCCTTTAGTGCTAG	0.0769 z-score
GACGATATCAGACCGGAGACGTGCTAG	-0.203 z-score
TCAAATTCCTGAAATCTCACTGTGCTA	0.158 z-score
TTAGATATCAGTCTCGACTAGTGCTAG	1.45 z-score
GACGGCCTCGGTATCGGGACGTGCTAG	1.05 z-score
GACGGTTTCGGTTCCGGGGCGTGCTAG	14.2 z-score

Single results of other studies
Molecule	target	test	system	conditions	how to read	endpoint	result
PhoQ, residues 284 288 289 292 302 303 TLMATV	PhoP, residues 12 14 15 18 19 LWHSL (Escherichia coli, UniProt P23836)	Sort-seq, refers to: YFP reporter	E. coli	PhoQ-PhoP variant library, added: 10 µM Mg2+	relative to: high Mg2+ state, higher = stronger signaling	fold induction	1.76 and 2.67

Some of these lines once more (series 3):
Strand	E-score
ATCAACGG	0.181
CGGCTCCA	0.211
ATGAAGCA	-0.267
AACTCAGT	-0.192
